Experimental data pooled from the literature.
Each line is one published result; not all experiments were run side by side. “And” joins repeats or separate records; there may be more than shown. ± gives the spread as reported.
lecA: PA-I galactophilic lectin (lecA, Pseudomonas aeruginosa, UniProt Q05097)
Complement C3: Complement C3 (Homo sapiens, UniProt P01024)

With `O=C(COc1ccccc1)N[C@@H](Cc1cn(CCNC(=O)c2ccc(S[C@@H]3O[C@H](CO)[C@H](O)[C@H](O)[C@H]3O)cc2)nn1)C(=O)NCCO` the Kd was 9.4 µM (lecA; binding, ITC).
`CC(C)C[C@H](NC(=O)[C@@H](NC(=O)[C@H](CCCCN(C)C)NC(=O)[C@H](CCCNC(=N)N)NC(=O)[C@H](Cc1c[nH]cn1)NC(=O)[C@H](CCCNC(=N)N)NC(=O)[C@H](CCCCN)NC(=O)[C@H](C)N)C(C)C)C(=O)N[C@@H](CCCNC(=N)N)C(=O)O` gave a Kd of 1.3 µM (TP53-binding protein 1, tandem tudor domain (Homo sapiens, UniProt Q12888); binding, tryptophan fluorescence; tandem Tudor domain).
`CC(C)[C@@H]1NC(=O)[C@@H](NC(=O)[C@@H](N)CCC(N)=O)CSSC[C@@H](C(=O)N[C@@H](Cc2c[nH]c3ccccc23)C(N)=O)NC(=O)[C@H](CCC(N)=O)NC(=O)[C@H](CC(N)=O)NC(=O)[C@H](CCC(N)=O)NC(=O)CNC(=O)[C@H](Cc2c[nH]c3ccccc23)NC(=O)[C@H](CC(=O)O)NC(=O)[C@H](CCC(N)=O)NC(=O)[C@H](Cc2c[nH]c3ccccc23)NC1=O` has a Kd of 0.5 µM (Complement C3; surface plasmon resonance; 25 °C, 1:1 binding model).
For `COc1cc(C(=O)O)c2c(c1)C(C)=CC(C)(C)N2`, the Kd was 720 µM (E3 ubiquitin-protein ligase CBL-C (Homo sapiens, UniProt Q9ULV8); binding, NMR).
For `C[C@H](NC(=O)[C@H](CCCCNCC(=O)O)NC(=O)[C@H](Cc1ccccc1)NC(=O)[C@H](CCC(=O)O)NC(=O)[C@@H](N)CC(=O)O)C(=O)N[C@@H](CC(=O)O)C(=O)N[C@@H](CCC(=O)O)C(=O)O`, the Kd was 97 µM (AGER (Homo sapiens, UniProt Q15109); binding, fluorescence; pH 6.5).
For `CNc1ccccc1C(=O)O[C@H]1C[C@H](n2cnc3c(N)ncnc32)O[C@@H]1COP(=O)(O)OP(=O)(O)O`, the Kd was 0.92 ± 0.16 µM (Unconventional myosin-Va (Gallus gallus, UniProt Q02440, D297C/G292C/I296C/S293C/V295G); binding, ligand, stopped-flow FRET; 15 °C, with: 2 mM MgCl2).
For `CCOc1cc(C2CC(=O)NC3=C2C(=O)CC(c2ccc(F)cc2)C3)cc([N+](=O)[O-])c1O` (stereo not drawn), the Kd was 12 µM (Histone acetyltransferase type B catalytic subunit (Homo sapiens, UniProt O14929); binding, SPR).
For `Cc1ccc(OCC(=O)N[C@@H](Cc2cn(CCNC(=O)c3ccc(S[C@@H]4O[C@H](CO)[C@H](O)[C@H](O)[C@H]4O)cc3)nn2)C(=O)NCCO)cc1`, the Kd was 7.7 µM (lecA; binding, SPR).
`CC(C)[C@@H]1NC(=O)[C@@H](NC(=O)[C@@H](N)Cc2c[nH]c3ccccc23)CSSC[C@@H](C(=O)N[C@@H](Cc2c[nH]c3ccccc23)C(N)=O)NC(=O)[C@H](CCCNC(=N)N)NC(=O)[C@H](CC(N)=O)NC(=O)[C@H]([C@@H](C)O)NC(=O)CNC(=O)[C@H](Cc2c[nH]c3ccccc23)NC(=O)[C@H](CC(=O)O)NC(=O)[C@H](CCC(N)=O)NC(=O)[C@H](Cc2c[nH]c3ccccc23)NC1=O` has a Kd of 0.76 µM (Complement C3; surface plasmon resonance; 25 °C, two-state reaction model).
`C[C@H](NC(=O)[C@H](Cc1ccccc1)NC(=O)c1ccc(C(F)(F)F)cc1)C(=O)N[C@H](C(=O)N[C@@H](CCCC[N+](C)(C)C)C(=O)N[C@@H](CO)C(N)=O)C1CCCC1` has a Kd of 6.21 µM (Chromobox protein homolog 1 (Homo sapiens, UniProt P83916); binding, ITC).
`O=C(COCCc1ccccc1)N[C@@H](Cc1cn(CCNC(=O)c2ccc(S[C@@H]3O[C@H](CO)[C@H](O)[C@H](O)[C@H]3O)cc2)nn1)C(=O)NCCO` gave a Kd of 8.3 µM (lecA; binding, ITC).
The Kd of `CNCCCC[C@H](NC(=O)[C@@H](NC(=O)[C@H](CCCNC(=N)N)NC(=O)[C@H](C)N)[C@@H](C)O)C(=O)N[C@@H](CCC(N)=O)C(=O)N[C@H](C(=O)N[C@@H](C)C(=O)N[C@@H](CCCNC(=N)N)C(=O)N[C@@H](CCCCN)C(=O)N[C@@H](CO)C(=O)N[C@H](C(=O)NCC(=O)NCC(=O)N[C@@H](CCCCN)C(=O)N[C@@H](C)C(=O)O)[C@@H](C)O)[C@@H](C)O` is reported as 53 µM (Histone-lysine N-methyltransferase 2A, PHD3-bromodomain cassette (KMT2A, Homo sapiens, UniProt Q03164, del1666-1702); binding, isothermal titration calorimetry; pH 7.5, 25 °C, coexpressed protein complex, with: H3K4me peptide).
The Kd of `O=C(Nc1cc(Cl)ccc1O)c1nn2c(C(F)(F)F)cc(-c3cc(Br)cs3)nc2c1Br` is reported as 0.26 µM (Hepatitis A virus cellular receptor 2 (Homo sapiens, UniProt Q8TDQ0); binding, microscale thermophoresis).
With `CC(=O)N[C@H](C(=O)N1CCC[C@H]1C(=O)N1CCC[C@H]1C(=O)N1C[C@@H]2C[C@H]1C(=O)N[C@@H](C(C)C)C(=O)N1CCC[C@H]1C(=O)N1C[C@@H](C[C@H]1C(=O)N[C@@H](CCCNC(=N)N)C(=O)N[C@@H](CCCNC(=N)N)C(=O)N[C@@H](CCCNC(=N)N)C(N)=O)OCCC=CCO2)C(C)C` the Kd was ~24 µM and 24.2 µM (Growth factor receptor-bound protein 2, N-terminal SH3 domain (GRB2, Homo sapiens, UniProt P62993); binding, tryptophan fluorescence; PBS; 21 °C).
`NC(=O)CN1C(=O)C(O)(CC(=O)c2cccc(N)c2)c2ccccc21` (stereo not drawn) has a Kd of 2.4 µM (uncharacterized protein (Leishmania donovani, UniProt A0A3Q8IA09); competitive ITC; with: aspartate 60 µM).
`CC[C@@H]1NC(=O)CNC(=O)[C@H](Cc2c[nH]c3ccccc23)NC(=O)[C@H](CC(=O)O)NC(=O)[C@H](CCC(N)=O)NC(=O)[C@H](Cc2c[nH]c3ccccc23)NC(=O)[C@H](C(C)C)NC(=O)[C@@H](NC(=O)[C@@H](NC(C)=O)[C@@H](C)CC)CSSC[C@@H](C(=O)N[C@H](C(N)=O)[C@@H](C)O)NC(=O)[C@H](CCCN=C(N)N)NC(=O)[C@H](Cc2c[nH]cn2)NC1=O` gave a Kd of 0.252 ± 0.025 µM (Complement C3, C3b fragment (Homo sapiens, UniProt P01024); SPR; 25 °C).
The Kd of `CC[C@H](C)[C@H](NC(=O)[C@H](CCCNC(=N)N)NC(=O)NC[C@H](CCC(N)=O)NC(=O)NC[C@H](CC(C)C)NC(=O)NC[C@H](CCCNC(=N)N)NC(=O)NC[C@H](C)NC(=O)[C@H](CCCCN)NC(=O)[C@H](CCC(=O)O)NC(C)=O)C(=O)N[C@@H](C)C(N)=O` is reported as 13.3 µM (Histone chaperone ASF1A (Homo sapiens, UniProt Q9Y294); binding, ITC; pH 7.5).
The Kd of `CSCC[C@H](NC(C)=O)C(=O)NCC(=O)NCC(=O)N[C@@H](CCC(=O)O)C(=O)N[C@@H](CC(C)C)C(=O)N[C@H](C(=O)N[C@H](C(=O)NCC(=O)N[C@@H](CC(C)C)C(=O)NCC(=O)N[C@@H](C)C(=O)N[C@@H](CC(C)C)C(=O)N[C@@H](CCCNC(=N)N)C(=O)N[C@@H](CCCNC(=N)N)C(=O)N[C@@H](CCCNC(=N)N)C(=O)N[C@@H](CCCCN)C(=O)N[C@@H](CCCNC(=N)N)C(=O)N[C@@H](CC(C)C)C(=O)N[C@@H](CC(C)C)C(=O)N[C@@H](CCC(=O)O)C(=O)N[C@@H](CCC(N)=O)C(=O)N[C@@H](CCC(=O)O)C(=O)N[C@@H](CCCCN)C(=O)N[C@@H](CCCNC(=N)N)C(N)=O)[C@@H](C)O)C(C)C` is reported as less than 25 µM (Kcnma1 (Mus musculus, UniProt Q08460); channel block, inside-out patch clamp; upper bound).
For `C[n+]1cc2cc3cc(ccc31)NC(=O)CCCCC(=O)Nc1ccc3c(c1)cc(c[n+]3C)C(=O)Nc1ccc3[nH]cc(c3c1)CCNC2=O`, the Kd was 0.13 ± 0.01 µM (cKIT2 G-quadruplex DNA; microscale thermophoresis).
The Kd of `OC[C@H]1O[C@@H](Oc2ccc(-c3cn([C@@H]4O[C@H](CO)[C@@H](n5cc(CCCCc6cn([C@H]7[C@H](O)[C@@H](O)[C@H](n8cc(-c9ccc(O[C@@H]%10O[C@H](CO)[C@H](O)[C@H](O)[C@H]%10O)cc9)nn8)O[C@@H]7CO)nn6)nn5)[C@H](O)[C@H]4O)nn3)cc2)[C@H](O)[C@@H](O)[C@H]1O` is reported as 0.092 µM (lecA; binding, ITC; pH 7.5).
The Kd of `O=C(COCc1ccccc1)N[C@@H](Cc1cn(CCNC(=O)c2ccc(S[C@@H]3O[C@H](CO)[C@H](O)[C@H](O)[C@H]3O)cc2)nn1)C(=O)NCCO` is reported as 6.3 µM (lecA; binding, ITC).
`Nc1ncnc2c1ncn2[C@@H]1O[C@H](CO)[C@@H](O[C@H]2O[C@H](CO)[C@@H](OP(=O)(O)O)[C@H](OP(=O)(O)O)[C@H]2O)[C@H]1O` gave a Kd of 0.0264 µM (Inositol 1,4,5-trisphosphate-gated calcium channel ITPR1, IP3-binding core (Itpr1, Rattus norvegicus, UniProt P29994, R568Q); binding, 3H-IP3 competition; IP3-binding core IBC^R568Q).
With `O=c1c(Br)c2oc3c(CN(Cc4ccccn4)Cc4cnccn4)c(O)c(Cl)cc3nc-2c2ccccc12` the Kd was 0.0007 µM (zinc ion; fluorescence titration; pH 7.0, 25 °C).
`CCOC(=O)C1=CN([C@@H]2O[C@H](CO)[C@@H](O)[C@H]2O)C=CC1` gave a Kd of 21.3 µM (SIRT5 (Homo sapiens, UniProt Q9NXA8, A86S); binding, MST).
`COc1cc(-c2nc3ccc(C(=O)NCCCN4CCN(c5cccc(C)c5C)CC4)cc3n2C2CCC2)cc(OC)c1OC` has a Kd of 0.0032 µM (ACVRL1 (Homo sapiens, UniProt P37023); binding, TR-FRET).
Under Kd, `Cn1ccc(-c2cc(Cl)c(Cl)c3[nH]c4c(c23)CN(C(=O)CO)CC4)n1` is recorded as “no binding” (CGAS (Homo sapiens, UniProt Q8N884); surface plasmon resonance; apo protein).
With `CC(C)=CCC[C@](C)(O)[C@H]1CC[C@]2(C)[C@@H]1[C@H](O)C[C@@H]1[C@@]3(C)CC[C@H](O)C(C)(C)[C@@H]3CC[C@]12C` the Kd was 228 ± 0.001 µM (YWHAZ (Homo sapiens, UniProt P63104, R127A); biolayer interferometry; R127A mutant).

Some of these lines once more:
`CC(C)[C@@H]1NC(=O)[C@@H](NC(=O)[C@@H](N)Cc2c[nH]c3ccccc23)CSSC[C@@H](C(=O)N[C@@H](Cc2c[nH]c3ccccc23)C(N)=O)NC(=O)[C@H](CCCNC(=N)N)NC(=O)[C@H](CC(N)=O)NC(=O)[C@H]([C@@H](C)O)NC(=O)CNC(=O)[C@H](Cc2c[nH]c3ccccc23)NC(=O)[C@H](CC(=O)O)NC(=O)[C@H](CCC(N)=O)NC(=O)[C@H](Cc2c[nH]c3ccccc23)NC1=O` has a Kd of 0.76 µM (Complement C3; surface plasmon resonance; 25 °C, two-state reaction model).
`CC(C)[C@@H]1NC(=O)[C@@H](NC(=O)[C@@H](N)CCC(N)=O)CSSC[C@@H](C(=O)N[C@@H](Cc2c[nH]c3ccccc23)C(N)=O)NC(=O)[C@H](CCC(N)=O)NC(=O)[C@H](CC(N)=O)NC(=O)[C@H](CCC(N)=O)NC(=O)CNC(=O)[C@H](Cc2c[nH]c3ccccc23)NC(=O)[C@H](CC(=O)O)NC(=O)[C@H](CCC(N)=O)NC(=O)[C@H](Cc2c[nH]c3ccccc23)NC1=O` has a Kd of 0.5 µM (Complement C3; surface plasmon resonance; 25 °C, 1:1 binding model).
With `CC(=O)N[C@H](C(=O)N1CCC[C@H]1C(=O)N1CCC[C@H]1C(=O)N1C[C@@H]2C[C@H]1C(=O)N[C@@H](C(C)C)C(=O)N1CCC[C@H]1C(=O)N1C[C@@H](C[C@H]1C(=O)N[C@@H](CCCNC(=N)N)C(=O)N[C@@H](CCCNC(=N)N)C(=O)N[C@@H](CCCNC(=N)N)C(N)=O)OCCC=CCO2)C(C)C` the Kd was ~24 µM and 24.2 µM (Growth factor receptor-bound protein 2, N-terminal SH3 domain (GRB2, Homo sapiens, UniProt P62993); binding, tryptophan fluorescence; PBS; 21 °C).
